Measurements from different studies.
Every numbered part comes from another study and shows a few of its results, in no order. Substitutions count along the parent as printed.

Series 1
Target: CCNA2, cyclin fold, Cln2 fusion (human)
Technique: yeast growth competition, sequencing
Medium: yeast
Notes: weak parent motif
Baseline: not given
Reading: higher = stronger binding
Starting sequence: SLBP docking peptide (human); ARYKRKLLINDFG
`ARYKRKLTINDFG [L8T]` — result for “normalised enrichment score”: 1.08.
`ARYRRKLLINDFG [K4R]` — result for “normalised enrichment score”: 1.09.
For `ARSKRKLLINDFG [Y3S]`, “normalised enrichment score” read 2.13.
`ARYTRKLLINDFG [K4T]` — result for “normalised enrichment score”: 0.864.
`ARYKRKLLINDGG [F12G]`: “normalised enrichment score” 1.32.
Under “normalised enrichment score”, `ARVKRKLLINDFG [Y3V]` is recorded as 1.95.
`AQYKRKLLINDFG [R2Q]`: “normalised enrichment score” 1.43.
Under “normalised enrichment score”, `ARYKRKLLINDDG [F12D]` is recorded as 0.362.
`ARYKRKLLINDYG [F12Y]` — result for “normalised enrichment score”: 1.7.
For `ARYKRKLLINDCG [F12C]`, “normalised enrichment score” read 0.542.
Under “normalised enrichment score”, `ARYKAKALINDFG [R5A L7A]` is recorded as 1.27.
Under “normalised enrichment score”, `ARYKRQLLINDFG [K6Q]` is recorded as 1.65.
`ARYKRKLVINDFG [L8V]` — result for “normalised enrichment score”: 1.53.
For `ARYKRKLLINDNG [F12N]`, “normalised enrichment score” read 0.865.
Under “normalised enrichment score”, `AKYKRKLLINDFG [R2K]` is recorded as 1.14.

Series 2
Target: Centromere-binding protein 1, full length, His-tagged (CBF1, Saccharomyces cerevisiae, UniProt P17106, residues 1-351)
UniProt P17106, sequence (whole entry, looked up): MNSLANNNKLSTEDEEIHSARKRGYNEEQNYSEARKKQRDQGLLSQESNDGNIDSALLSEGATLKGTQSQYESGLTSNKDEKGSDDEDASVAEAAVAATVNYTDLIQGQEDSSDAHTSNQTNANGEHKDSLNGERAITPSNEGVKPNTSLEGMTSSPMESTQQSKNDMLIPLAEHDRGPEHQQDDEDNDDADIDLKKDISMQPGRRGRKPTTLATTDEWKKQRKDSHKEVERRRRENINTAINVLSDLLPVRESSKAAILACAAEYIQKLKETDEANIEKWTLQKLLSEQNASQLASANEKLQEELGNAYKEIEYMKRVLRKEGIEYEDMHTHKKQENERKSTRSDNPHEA
Technique: competition protein-binding microarray
Molecule type: double-stranded DNA, one strand shown
Medium: in vitro
Tested at: 2 µM
Notes: whole 60-bp probe, lowest competitor level
Together with: Pho4 competitor, 0.05 µM
Reading: higher = stronger binding
The fluorescence intensity of `GACATCAAATGCAAGCACATGAAGCTGGAACTTCGCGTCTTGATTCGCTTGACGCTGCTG` is reported as 93.3 a.u.
With `AAATTACTAAGTTTTCACGTGTCCTACCCCGTATGAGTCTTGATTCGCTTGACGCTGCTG` the fluorescence intensity was 1180 a.u.
For `AGTTCTCTATTCCGCACCGTGCCGAGTTGTGGCAAAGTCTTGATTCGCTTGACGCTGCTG`, the fluorescence intensity was 73.5 a.u.
`CTTCTTCGTTACAGTGACGTGAGATGTTCAGCAGTCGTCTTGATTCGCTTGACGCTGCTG` gave a fluorescence intensity of 80.2 a.u.
`TTCAACTTGGAATCCGACGTGATGGACTCAACGCCAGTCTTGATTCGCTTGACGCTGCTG` gave a fluorescence intensity of 68.1 a.u.
The fluorescence intensity of `GTCTTGTCTCATTGTCACCGAACTTTCCCCACTTCAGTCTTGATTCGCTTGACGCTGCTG` is reported as 94.5 a.u.
For `AAATTACTAAGTTGGTCCGTGGGTGACGCCGTATGAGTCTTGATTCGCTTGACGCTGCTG`, the fluorescence intensity was 65.6 a.u.
For `TGGAGAAAGATTCACCACGTTCACTCAAGATCTTCAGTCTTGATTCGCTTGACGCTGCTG`, the fluorescence intensity was 78.9 a.u.
For `ACTCGAATGACGAACTACCTGATCCCCTTCTTATTGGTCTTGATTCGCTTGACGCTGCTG`, the fluorescence intensity was 78.6 a.u.
For `CGACTGCGCTGTAACCATGCGTGGACCAGCCAATTTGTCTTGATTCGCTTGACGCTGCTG`, the fluorescence intensity was 63 a.u.
`TGTTGAATGCTAACAGACGTGGGTAAGCCAAGACTGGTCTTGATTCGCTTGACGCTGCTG` has a fluorescence intensity of 69.6 a.u.
With `TTTTTCTTCTTAAAGCACGTTAACCAGTAATCAAGGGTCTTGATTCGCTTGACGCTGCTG` the fluorescence intensity was 90 a.u.
`CTTTCCCGATCTTGCCCCGTGGGTGTAGCACATTTGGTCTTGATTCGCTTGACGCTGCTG` gave a fluorescence intensity of 91.9 a.u.
With `CGTCCTAGTGATTGCCTGGTGGGTGCCATGAGGAAGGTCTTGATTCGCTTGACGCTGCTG` the fluorescence intensity was 65.8 a.u.
`AAAGCGGTAATTTGCTCCGTGGGTGCAGATATCTATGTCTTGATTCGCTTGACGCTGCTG` has a fluorescence intensity of 82.3 a.u.
For `CCAATTGCAAAATATCACCTGGGACGACTTCGTTGGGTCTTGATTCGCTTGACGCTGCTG`, the fluorescence intensity was 80.4 a.u.
`CAAGGGATTTTGACGCCCGTGACGGAGGATGATTTGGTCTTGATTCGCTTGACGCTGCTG` has a fluorescence intensity of 183 a.u.
`ACTGTTATTTTGATGTACATGACAGTACGTTATTCTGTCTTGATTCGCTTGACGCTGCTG` gave a fluorescence intensity of 93.2 a.u.
For `GCCCTCGGCGGGGGCCACGTGGCTCTCAGGCGCCTGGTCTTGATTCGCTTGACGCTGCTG`, the fluorescence intensity was 659 a.u.

Series 3
Target: RNA binding protein fox-1 homolog 2, RRM domain, GST-SBP tag (RBFOX2, Homo sapiens, UniProt O43251-10, residues 100-194)
Technique: RNA Bind-n-Seq
Molecule type: RNA
Medium: in vitro
Tested at: 365 nM
Notes: natural RNA segment, single round, ends assumed
Baseline: no-protein control
Reading: higher = stronger binding
Construct (chain): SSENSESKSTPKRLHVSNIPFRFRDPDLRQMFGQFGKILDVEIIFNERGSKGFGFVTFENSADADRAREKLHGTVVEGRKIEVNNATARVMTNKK
`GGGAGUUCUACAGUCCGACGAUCCUGGAGCUUCUGGGCGCAAGUUACAGACAUCAUAACCACUGAUCCUAACACACAUAACCAUCAGCCAGAAGAUGCCGCAUGCUCCCCUGUGUCUGGAGGAUUUUGUCACCUGGAAUUCUCGGGUGCCAA` — result for “RBNS enrichment (R)”: 5.22.
`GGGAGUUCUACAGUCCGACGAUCGCUAAAUUGUGACCUGGGGAAGGACUUUGCUUUAGUCGGUGAUGUUCGUACUUGGUGACAAAUUGAGACUGCUGCUGGAUUCAGAUUGACAAGAUUUUCUUGGAUUUUUUUGGAAUUCUCGGGUGCCAA`: “RBNS enrichment (R)” 0.276.
`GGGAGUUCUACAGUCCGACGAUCAUUUUUAUUUUUGUUCGAAGCAUGAUCUUAAAGCUAUGUUUAAGUUAAUGGAUGUAAUGCAGGGUUCCUACACUGUAUUGGCGCAUGUUGGUGGCCCUCUGUGCCCUAAGUGGAAUUCUCGGGUGCCAA` — result for “RBNS enrichment (R)”: 25.2.
`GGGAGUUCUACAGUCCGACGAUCAACAUGACCUCACUCUUCCUCAAAGGAGCCCCUGGUCUUCCCUGUGUGACUCAGUUCUUUCCAUCUGUUUGUCCCGCUGCAAGCCUCUUUCUGCGCUGACUGUGACAUUGUGGAAUUCUCGGGUGCCAA` — result for “RBNS enrichment (R)”: 0.3.
`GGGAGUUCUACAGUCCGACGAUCAACCAUGGAGAAAUUAACUCAGUUAAUUUAAGACUUUGUUUGGUUUUUUUUUUUUAAGUUUAGUUUUAUUUUUUGUUUUACAAAUAUAUAAGCACCAUGUGCUAGGCCUCUGGAAUUCUCGGGUGCCAA` — result for “RBNS enrichment (R)”: 0.596.
Under “RBNS enrichment (R)”, `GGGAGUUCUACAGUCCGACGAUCGUGUCCCUGAGCAGGAGGGGCUGUUGGGGUUGAGGGGGCCUUCAUUAAACCAAGUAACAUUGGGUCCUUUUUAGGUCCCACUUAAGCUGCUCUCCUGUGUGUGCUGAGGGUGGAAUUCUCGGGUGCCAA` is recorded as 0.552.
Under “RBNS enrichment (R)”, `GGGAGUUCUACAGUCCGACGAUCACUAUGCCAUCCUGCAGCUGAAAUGGGAACACUGGCUGCCUCUCCAAACCCGCUCUUGGACAGAGGAUCUGGGAGGUGGAAGCCAGGCCAGAGGACUUGGGGAAAAUGAGUGGAAUUCUCGGGUGCCAA` is recorded as 0.814.
For `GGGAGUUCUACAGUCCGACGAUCUUGUUGUUGUUGAUGUUGUUGUUGUUGUGUAAUGUAACAGCACUUUAAAAGGGCGACAACUGACUCACGAGAUGGCGACCAUCUUGAGCCUAUUUGGGGAGACCUGUAUCUGGAAUUCUCGGGUGCCAA`, “RBNS enrichment (R)” read 0.211.
`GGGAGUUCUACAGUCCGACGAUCCCAUUCUCACAGAACCUCAAAGACUUGGUUCCAGGCUCUCCAGAGACCAUACCCAACUCAUGUGCAUGUGCCGUUUUUGCUUCAAGCUCAGUAGCAGGACCUGCCCCGAGUGGAAUUCUCGGGUGCCAA` — result for “RBNS enrichment (R)”: 3.24.
`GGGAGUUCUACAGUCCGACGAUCAUUUUAGUUCACAAACAUAUCCAUAAGAAUGUUUACACAUGGCAGUAUCAAAGCAUAUAAAAUAUUUUCUAUGUAAGUAAAUUGCAUCUUUAUGCUAGUGAACAAAGUAGUGGAAUUCUCGGGUGCCAA` — result for “RBNS enrichment (R)”: 0.513.
`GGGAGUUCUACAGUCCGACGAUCAUCACCCUGUCUCUUUACCACUAACCUGUGAGGUGUCGUCACCAGAGGACACCUGAGGCCUUGACACCUUCCAGGACUCUGGCAAUGGGAGUUUUGAUACUGGAUACCCAUGGAAUUCUCGGGUGCCAA`: “RBNS enrichment (R)” 0.316.
For `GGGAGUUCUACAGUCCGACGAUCCAAAAAAACUUCUGCUUUGUCUUUGGUCAUUAGGGAGCUCUAAUGUGUGUUUGUGGCUCCAAGUUACAUUUUGUGUUUCAUUGAUCUAUAUGUAUAUAUGUGAUGUUUUCUGGAAUUCUCGGGUGCCAA`, “RBNS enrichment (R)” read 0.701.

Series 4
Target: Interferon regulatory factor 5, full length, phosphomimetic (IRF5, Homo sapiens, UniProt Q13568-2, residues 1-514, S451D/S453D/S456D/S462D)
Technique: protein-binding microarray
Molecule type: double-stranded DNA, one strand shown
Medium: in vitro
Tested at: 940 nM top
Notes: 60-bp whole probe
Together with: salmon DNA 0.4 mg/ml
Baseline: random background probes
Reading: higher = stronger binding
Shared flanks, not repeated: GCCTAGCAC … GTCTTGATTCGCTTGACGCTGCTG
For `GGTGGGGTGCAGCAGGGCCAGTGCTAG`, “fitted relative affinity” read -0.414 z-score.
For `TCACACATATAATTTTGTACTGTGCTA`, “fitted relative affinity” read 0.291 z-score.
Under “fitted relative affinity”, `TTGGGTTTCGGGACTGGGTTAGTGCTA` is recorded as 6.05 z-score.
Under “fitted relative affinity”, `CTAGGTATCGGACTGGGTTAGTGCTAG` is recorded as 2.76 z-score.
`TCATTTATGTCCTGTCTAACTGTGCTA`: “fitted relative affinity” 0.569 z-score.
`TTAGGACTGAACTTTCGGTTAGTGCTA`: “fitted relative affinity” 1.56 z-score.
`AATACCTTCGAGTCTGCAACAGTGCTA`: “fitted relative affinity” 0.35 z-score.
For `TTCGGTTTCCTTATCCTTTAGTGCTAG`, “fitted relative affinity” read 2.35 z-score.
`TTAGGTTTCGGAATCGGTTAGTGCTAG` — result for “fitted relative affinity”: 9.01 z-score.
`TTAGATATCAGTATCGATGAGTGCTAG` — result for “fitted relative affinity”: 3.48 z-score.
Under “fitted relative affinity”, `TTAGGTTTCATTATCCTTTAGTGCTAG` is recorded as 7.04 z-score.
For `TCAAACTTTTTTCTGATACTGTGCTAG`, “fitted relative affinity” read 0.8 z-score.
`TTAGGACAGGGGTATCGGTTAGTGCTA`: “fitted relative affinity” 2.6 z-score.
For `TTGGGTCTGGGTATTTTTCTGTGCTAG`, “fitted relative affinity” read 0.341 z-score.
Under “fitted relative affinity”, `TTAGATCTCAATCTCGATTAGTGCTAG` is recorded as 1.34 z-score.
`GACGGACTGGGGTACCGGGACGTGCTA` — result for “fitted relative affinity”: -0.218 z-score.
`TTAGGTACCGACTTTCGGTTAGTGCTA` — result for “fitted relative affinity”: 2.74 z-score.
`TTAGAACTGCGTATCGATTAGTGCTAG` — result for “fitted relative affinity”: 1.08 z-score.
`TTAGGTCTCGGTATCGGCTAGTGCTAG` — result for “fitted relative affinity”: 5.79 z-score.
For `GATGGTCTCGGTCTCGGGACGTGCTAG`, “fitted relative affinity” read 4.65 z-score.
For `TTTGATCTCAGTCTCGATTAGTGCTAG`, “fitted relative affinity” read 3.56 z-score.
`TTAGGTCTCAGACTGGATTAGTGCTAG`: “fitted relative affinity” -0.482 z-score.
`TCAGGTTTCTATATTTGACTGTGCTAG` — result for “fitted relative affinity”: 3.56 z-score.

For quick reference, copied from above (series 4):
`GACGGACTGGGGTACCGGGACGTGCTA` — result for “fitted relative affinity”: -0.218 z-score.
For `TCAAACTTTTTTCTGATACTGTGCTAG`, “fitted relative affinity” read 0.8 z-score.
`AATACCTTCGAGTCTGCAACAGTGCTA`: “fitted relative affinity” 0.35 z-score.
`TTAGGACAGGGGTATCGGTTAGTGCTA`: “fitted relative affinity” 2.6 z-score.
`TTAGATATCAGTATCGATGAGTGCTAG` — result for “fitted relative affinity”: 3.48 z-score.
`TTAGGACTGAACTTTCGGTTAGTGCTA`: “fitted relative affinity” 1.56 z-score.
Under “fitted relative affinity”, `TTAGGTTTCATTATCCTTTAGTGCTAG` is recorded as 7.04 z-score.
For `TCACACATATAATTTTGTACTGTGCTA`, “fitted relative affinity” read 0.291 z-score.
`TTAGGTCTCGGTATCGGCTAGTGCTAG` — result for “fitted relative affinity”: 5.79 z-score.
For `TTCGGTTTCCTTATCCTTTAGTGCTAG`, “fitted relative affinity” read 2.35 z-score.
For `TTTGATCTCAGTCTCGATTAGTGCTAG`, “fitted relative affinity” read 3.56 z-score.
